Published values gathered from unrelated publications.
Each numbered part is a random draw from the data of one study; scales do not carry over between parts.

Sample 1 — method: competition protein-binding microarray; form: double-stranded DNA, one strand shown; matrix: in vitro; concentration: 2 µM; with: Cbf1 competitor, 0.05 µM; reading: higher = stronger binding; shared flanks, not repeated: … GTCTTGATTCGCTTGACGCTGCTG
Target: Phosphate system positive regulatory protein PHO4, full length, GST-tagged (PHO4, Saccharomyces cerevisiae, UniProt P07270, residues 1-312)
Notes: whole 60-bp probe, lowest competitor level
Residues (chain): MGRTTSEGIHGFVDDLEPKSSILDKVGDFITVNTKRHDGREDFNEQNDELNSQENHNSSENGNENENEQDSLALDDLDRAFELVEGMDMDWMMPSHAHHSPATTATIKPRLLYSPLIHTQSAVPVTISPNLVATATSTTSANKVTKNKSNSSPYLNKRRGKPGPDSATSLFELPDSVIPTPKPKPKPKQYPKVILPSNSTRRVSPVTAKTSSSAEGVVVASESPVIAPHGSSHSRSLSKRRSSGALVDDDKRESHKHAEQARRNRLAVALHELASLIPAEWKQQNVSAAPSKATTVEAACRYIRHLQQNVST
Strand | fluorescence intensity
CTTTCCCGATCTTGCCCCGTGGGTGTAGCACATTTG | 12200 a.u.
CGTCCTAGTGATTGCGCTGTGGGTGCCATGAGGAAG | 6140 a.u.
CTAACGAAGGTTTACCACGTGTTTTACAAGCCAAGT | 14900 a.u.
AGAGAAATATCGGAACGCATGCAGACCAAATTTATA | 8970 a.u.
CCGAGTCAAGAACATCACATGTTCATAATAACCGCA | 9640 a.u.
CGCAGTCGCAACCAACATGTGACGGATGCGAGCGAA | 8370 a.u.
ATACATTTCTCAGGACACGTACTGAGAATATTGTTG | 7780 a.u.
GGGTTGGACAGGTTCAGCGTGATGGTAAGCAGCACT | 5600 a.u.
AAAGCGGTAATTTGGGATGTGGGTGCAGATATCTAT | 5230 a.u.
CCGAAAAGGGCCCATCACGGCACATCTGAAGAAAAG | 3730 a.u.
TACGCTGCCAGCGATTTCGTGCCAGCAGCTTTGACT | 4170 a.u.
TGCGCAACAACTTGAGCCGTGGGTGTATGTCTAGAA | 5170 a.u.
TGGAACAAGGTGTTCCAGGTGACAAAGTTGGTTTCA | 3150 a.u.
AGAAGAGGCATATCGCACGTTTTACCGGGTCAGAAA | 12700 a.u.
CATACCCAACCTTGTCACAGTACTTAAGATATTTGT | 3930 a.u.
TATTCACAGAGTTCTCATGTGACAGGTATTGATGAT | 7270 a.u.
AAATTACTAAGTTGAACCGTGGGTGACGCCGTATGA | 6540 a.u.
CGGGGTTAAGTTTGTATTGTGGGTGGCTTGCAGCAG | 4360 a.u.
CTAACGAAGGTTTGGCCTGTGGGTGACAAGCCAAGT | 3600 a.u.

Sample 2 — method: protein binding microarray; form: double-stranded DNA, one strand shown; matrix: in vitro; concentration: not given; relative to: not given; reading: higher = stronger binding
Target: Histone acetyltransferase KAT6A, winged helix 1, GST fusion (KAT6A, Homo sapiens, UniProt Q92794, residues 1-85)
Notes: 8-mer, flanks averaged, mean of 2 arrays, mostly near background
Residues (chain): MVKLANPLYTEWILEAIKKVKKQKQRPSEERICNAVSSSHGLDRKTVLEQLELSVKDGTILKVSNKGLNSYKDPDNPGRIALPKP
Strand | E-score
CCCATGAC | -0.184
TCCGTCGA | 0.218
AAAAGTCA | -0.145
CCTGAGAG | -0.131
TCGGGAAA | 0.167
CTGACATA | -0.0878
CATTTTCA | -0.161
CTAATTAG | -0.108
ATGTCGTA | -0.182
GATTAACC | 0.0176
ACGAGTCG | -0.117
AAGGTTAT | -0.0514
ATTGAACG | -0.0743
AAATGGGC | -0.0909
ATGCCACC | -0.0435
GCCCAAAC | 0.0457

Sample 3 — method: RNA Bind-n-Seq; form: RNA; matrix: in vitro; concentration: 365 nM; relative to: no-protein control; reading: higher = stronger binding
Target: RNA binding protein fox-1 homolog 2, RRM domain, GST-SBP tag (RBFOX2, Homo sapiens, UniProt O43251-10, residues 100-194)
Notes: natural RNA segment, single round, ends assumed
Shared flanks, not repeated: GGGAGUUCUACAGUCCGACGAUC … UGGAAUUCUCGGGUGCCAA
Residues (chain): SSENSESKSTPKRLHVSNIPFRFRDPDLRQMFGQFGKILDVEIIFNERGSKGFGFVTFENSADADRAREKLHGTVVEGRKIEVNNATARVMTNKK
Strand | RBNS enrichment (R)
CAACACUGACCUGGGGCCUUUACAAAUGGUUGCUCUCCUCCAUCUUCCCAGGGCUGCGGUCCUGGUGUCUACUGCCGGCCGGCUGAGUCUGCGUGGGCUUUCUGUCUCUC | 0.253
UCACUGAUUGAGAUUACUUUGUAAGUAGCUGUUCAGAAGAAUAAAAUAUGACUGUUUUAGGGACUAGACCAUGUGCUUUUUUAACACUUAUAUAUAUAAUGGUCUAUUUG | 0.436
GCUGGGAUUACAGGUGUGAGCCACCACGCCCGGCCGAUUUGGGGCAUUUUUAUUUAACAGAACUUCUCUAACCUUCCAACUGCUUCCCACAAACACAUUGGCCUCAAGGC | 1.57
CCUGAUGGUGUCUGUUCCCACAAUAUCCUUCUAGUCUGCAUCGUGAAGUGGCUUAGGCCAAAGCUUCCUGUGUGAUGACGCACGUCCGAGACUGUUCCAUCUCAUUCCUC | 0.312
UGGAUAGAUGAAUACUGGGAUUGGCUCUGGAGCAUGUGUUUUGAGUUGAACCUUGCAGUCCUUUCUCUACGCCCGUGGAUUUUGUGGAAACACUUUGCAAUCUCUUUGUC | 5.47
UUAUAGGCAGUCACUAUAAAUUAUAAUUGUGGGCACUAGCAAUAUACAUAACAGAAGAAACAACAAUAAGGAUACAAUUGUAUAUAAACACCUACUAUAACAUCCAUGUG | 0.474
CCCUACGCCCUUUUUGGUACACUUAGAAGUUUUCCUUUUCCAUCAAUGGUACUGUUUCUUAGUGUUUUCAAUUGGAACAUAUCUUGUCUCACAGAGCUUUAAAUUAUUCU | 0.416
CCACGCACACCCCUACCCCUCUGUGAGGAGCUGUGGGAAGUGUGGGUUUGUCUCCAGAACAGAAGAGAAUGAUGGAUAUUCUGGCUCUGGGGCCCUCUCCACCACCACUC | 0.616

Sample 4 — method: protein-binding microarray; form: double-stranded DNA, one strand shown; matrix: in vitro; concentration: 250 nM; notes: 60-bp whole probe; with: salmon DNA 0.4 mg/ml; relative to: random background probes; reading: higher = stronger binding; shared flanks, not repeated: GCCTAGCAC … GTCTTGATTCGCTTGACGCTGCTG
Target: Interferon regulatory factor 7, full length, phosphomimetic (IRF7, Homo sapiens, UniProt Q92985, residues 1-503, S101K/S471D/S472D/S475D/S476D/S477D/S483D/S484D/S487D)
UniProt Q92985, sequence (whole entry, unmodified, looked up): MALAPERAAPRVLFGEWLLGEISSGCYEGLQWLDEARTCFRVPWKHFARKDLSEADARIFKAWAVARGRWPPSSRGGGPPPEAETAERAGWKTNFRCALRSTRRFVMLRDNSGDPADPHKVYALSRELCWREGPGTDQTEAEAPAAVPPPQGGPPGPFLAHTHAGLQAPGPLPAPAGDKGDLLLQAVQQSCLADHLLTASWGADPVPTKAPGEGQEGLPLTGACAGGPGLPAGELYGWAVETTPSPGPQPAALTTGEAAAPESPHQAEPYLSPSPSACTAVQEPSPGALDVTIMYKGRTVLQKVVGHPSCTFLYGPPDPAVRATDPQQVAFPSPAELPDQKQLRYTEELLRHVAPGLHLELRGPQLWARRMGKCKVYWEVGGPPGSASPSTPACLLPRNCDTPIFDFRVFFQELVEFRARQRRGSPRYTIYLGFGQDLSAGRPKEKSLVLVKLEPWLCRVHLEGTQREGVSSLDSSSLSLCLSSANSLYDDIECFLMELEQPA
Strand | log fluorescence [z-score]
GACGAACTGGGGACTTGAGACGTGCTA | -0.115
GACGGTTTCGGGTAACGGGACGTGCTA | 7.95
GACGGACTGGGGACCGGGGACGTGCTA | -0.531
CACGGTTTCGGTCTCGGGACGTGCTAG | 8.12
TTGTTTTTCATCATTGCCTAGTGCTAG | 1.54
TTAGGTCTCGTTCTCCTTTAGTGCTAG | 3.72
GACGGTTCCGTTTTCCTGACGTGCTAG | 6.17
TCATTTCTAATGTTTTTTACTGTGCTA | 1.7
TCATCTTTCTGTCAGTTACTGTGCTAG | 0.792
TCATTTCTTTACTTCACACTGTGCTAG | 1.95
GACGGTATCCTTTTCCTGGCGTGCTAG | 0.972
TTAGGTTTTGGTATCGGTTAGTGCTAG | 2.72
GGCGATTTCAGTCTCGAGACGTGCTAG | 0.267
TCATGTTTGGGCATTTTTACTGTGCTA | -0.317
GACGGACTGGGGTTTCGTGACGTGCTA | -0.0606
GACGATCTCAGTCTCGAGGCGTGCTAG | -0.128
TCAGGTATTTTTTTCTAACTGTGCTAG | 0.199
GAAGGTCTCGGTTTCGGGACGTGCTAG | 8.31
TTAGGTCTCGGTCTCGGTTTGTGCTAG | 5.41
